Assay results from different studies.
Target: Kappa-type opioid receptor (OPRK1, Homo sapiens, UniProt P41145)

For NCc1ccc2[nH]c3c(c2c1)CC1(O)C2Cc4ccc(O)c5c4C1(CCN2CC1CC1)C3O5 (stereo not drawn), the selectivity ratio was roughly 6 ([3H]diprenorphine binding; reference: Ki µ over Ki κ).
For CC(C)[C@H]1CC[C@H](N2CC[C@@](C)(c3cccc(O)c3)[C@@H](C)C2)CC1, the efficacy was 0% (agonist).
COC(=O)C1C(OC(c2ccc(Cl)cc2)c2ccc(Cl)cc2)CC2CCC1N2C (single isomer, unassigned) — result for displacement: “inactive” (binding; 10000 nM, added: [3H]diprenorphine).
With Cc1cc(O)cc(C)c1C[C@H](N)C(=O)N[C@H](C)C(=O)NCC(=O)N[C@@H](Cc1ccccc1)C(=O)NNC(=O)[C@H](Cc1ccccc1)NC(=O)CNC(=O)[C@@H](C)NC(=O)[C@@H](N)Cc1c(C)cc(O)cc1C the Emax was roughly 50% (GTPγS binding, agonist, radiometric; cell membranes).
CC(C)C[C@H](NC(=O)[C@H](Cc1cccc2ccccc12)NC(=O)CNC(=O)[C@H](NC(=O)[C@@H](N)Cc1ccc(O)cc1)[C@H](C)O)C(=O)N[C@@H](CO)C(N)=O has an Emax of 75% (GTPγS binding, agonist, radiometric; cell membranes).
CCOC(=O)C1C(OC(c2ccc(Cl)cc2)c2ccc(Cl)cc2)CC2CCC1N2C (single isomer, unassigned): displacement “inactive” (binding; 10000 nM, added: [3H]diprenorphine).
For CCCCC(=N)NCc1ccc2[nH]c3c(c2c1)CC1(O)C2Cc4ccc(O)c5c4C1(CCN2CC1CC1)C3O5 (stereo not drawn), the selectivity ratio was roughly 5 fold (binding, [3H]-diprenorphine competitive binding; CHO cells expressing κ opioid receptor; reference: Ki δ over Ki κ).
CC(C)C[C@H](NC(=O)[C@H](Cc1ccc2ccccc2c1)NC(=O)CNC(=O)[C@H](NC(=O)[C@@H](N)Cc1ccc(O)cc1)[C@H](C)O)C(=O)N[C@@H](CO[C@@H]1O[C@H](CO)[C@@H](O)[C@H](O)[C@H]1O)C(N)=O has an Emax of less than 10% (GTPγS binding, agonist, radiometric; cell membranes).
For Cc1cc(O)cc(C)c1CC(N)C(=O)NC1CCNc2c(Cc3ccccc3)cccc21 (stereo not drawn), maximal stimulation read “inactive” (agonist; CHO cell membranes; 10 µM; reference: U69593).

A few entries again:
COC(=O)C1C(OC(c2ccc(Cl)cc2)c2ccc(Cl)cc2)CC2CCC1N2C (single isomer, unassigned) — result for displacement: “inactive” (binding; 10000 nM, added: [3H]diprenorphine).
